Measured values of several laboratories.
Parts stem from different laboratories: compare values within a part only. “And” joins repeats or separate records; there may be more than shown.
Sequence of UniProt P07949 (whole entry, unmodified, looked up): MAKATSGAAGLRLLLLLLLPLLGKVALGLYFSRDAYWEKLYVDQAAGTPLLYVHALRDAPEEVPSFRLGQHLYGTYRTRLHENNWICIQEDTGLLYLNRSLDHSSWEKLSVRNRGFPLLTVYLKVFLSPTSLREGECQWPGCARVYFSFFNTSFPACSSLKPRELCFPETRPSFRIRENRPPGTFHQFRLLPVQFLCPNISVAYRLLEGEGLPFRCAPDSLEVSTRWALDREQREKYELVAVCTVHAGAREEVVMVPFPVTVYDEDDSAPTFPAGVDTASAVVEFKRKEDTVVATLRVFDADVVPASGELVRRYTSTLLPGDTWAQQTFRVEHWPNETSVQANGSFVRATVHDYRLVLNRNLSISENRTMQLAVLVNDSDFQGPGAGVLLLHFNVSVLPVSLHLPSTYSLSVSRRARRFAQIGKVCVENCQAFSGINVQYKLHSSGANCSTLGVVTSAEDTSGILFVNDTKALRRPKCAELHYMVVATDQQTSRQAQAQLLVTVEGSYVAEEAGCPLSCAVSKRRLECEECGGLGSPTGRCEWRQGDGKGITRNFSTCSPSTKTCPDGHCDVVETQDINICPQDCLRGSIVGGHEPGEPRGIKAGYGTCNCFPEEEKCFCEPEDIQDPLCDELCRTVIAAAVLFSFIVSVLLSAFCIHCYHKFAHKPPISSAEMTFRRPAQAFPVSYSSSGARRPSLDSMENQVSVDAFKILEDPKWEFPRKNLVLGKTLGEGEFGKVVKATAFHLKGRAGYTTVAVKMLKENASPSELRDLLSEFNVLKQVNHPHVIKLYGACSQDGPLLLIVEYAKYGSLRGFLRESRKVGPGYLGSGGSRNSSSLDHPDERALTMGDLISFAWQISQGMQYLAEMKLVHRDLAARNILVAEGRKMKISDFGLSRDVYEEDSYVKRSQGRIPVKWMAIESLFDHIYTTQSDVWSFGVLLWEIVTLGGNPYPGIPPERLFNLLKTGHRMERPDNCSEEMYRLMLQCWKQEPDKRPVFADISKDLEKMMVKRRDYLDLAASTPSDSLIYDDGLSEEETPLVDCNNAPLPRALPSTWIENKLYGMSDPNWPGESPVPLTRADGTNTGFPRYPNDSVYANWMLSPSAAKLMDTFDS
Sequence of UniProt P10721 (whole entry, unmodified, looked up): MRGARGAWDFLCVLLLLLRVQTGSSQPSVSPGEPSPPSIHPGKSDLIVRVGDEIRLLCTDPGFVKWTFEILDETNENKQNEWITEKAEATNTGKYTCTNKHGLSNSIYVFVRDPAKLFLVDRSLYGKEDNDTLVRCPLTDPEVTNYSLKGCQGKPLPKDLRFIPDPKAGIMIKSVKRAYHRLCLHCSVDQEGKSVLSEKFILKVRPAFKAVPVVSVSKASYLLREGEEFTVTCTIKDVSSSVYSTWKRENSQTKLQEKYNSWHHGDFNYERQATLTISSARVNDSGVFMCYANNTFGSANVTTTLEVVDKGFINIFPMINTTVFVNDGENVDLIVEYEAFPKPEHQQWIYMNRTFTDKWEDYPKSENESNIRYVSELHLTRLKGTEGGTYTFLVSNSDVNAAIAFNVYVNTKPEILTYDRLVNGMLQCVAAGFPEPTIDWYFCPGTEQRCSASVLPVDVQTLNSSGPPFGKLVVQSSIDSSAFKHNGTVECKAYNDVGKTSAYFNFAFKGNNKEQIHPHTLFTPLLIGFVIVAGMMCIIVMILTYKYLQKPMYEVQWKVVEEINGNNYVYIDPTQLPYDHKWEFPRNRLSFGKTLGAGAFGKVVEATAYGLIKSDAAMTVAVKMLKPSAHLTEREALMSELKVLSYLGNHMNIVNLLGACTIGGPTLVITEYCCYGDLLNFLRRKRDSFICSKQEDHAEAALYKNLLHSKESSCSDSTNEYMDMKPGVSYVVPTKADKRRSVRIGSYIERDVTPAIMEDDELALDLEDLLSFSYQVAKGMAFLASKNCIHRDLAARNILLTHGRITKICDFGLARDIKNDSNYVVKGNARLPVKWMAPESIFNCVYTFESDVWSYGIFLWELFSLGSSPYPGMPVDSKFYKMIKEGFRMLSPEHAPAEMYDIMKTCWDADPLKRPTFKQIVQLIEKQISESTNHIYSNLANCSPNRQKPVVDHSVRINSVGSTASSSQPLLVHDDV
Sequence of UniProt Q8IY84 (whole entry, looked up): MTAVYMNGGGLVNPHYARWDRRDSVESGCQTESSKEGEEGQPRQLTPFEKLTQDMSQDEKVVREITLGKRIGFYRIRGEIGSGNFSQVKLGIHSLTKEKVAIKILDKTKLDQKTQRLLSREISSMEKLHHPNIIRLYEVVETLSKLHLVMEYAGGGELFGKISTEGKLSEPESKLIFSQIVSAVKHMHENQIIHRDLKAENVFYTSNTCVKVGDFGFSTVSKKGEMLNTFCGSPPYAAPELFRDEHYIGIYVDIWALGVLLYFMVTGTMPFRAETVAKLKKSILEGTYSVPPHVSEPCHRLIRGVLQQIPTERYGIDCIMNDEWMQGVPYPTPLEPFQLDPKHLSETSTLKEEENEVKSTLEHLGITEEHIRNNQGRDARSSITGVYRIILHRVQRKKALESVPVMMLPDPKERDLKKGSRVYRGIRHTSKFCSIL

Study 1 — host: human; sample: microsomes or S9; concentration: 2 µM; time: 0.5 h; quantity: remaining compound
O=C(O)c1cc(-c2ccccc2)nn1-c1ncccc1-c1ccccc1: > 99%
COC(=O)c1cc2c(c(N(C)C)c1)OC(C)(C)C=C2: 0.0607%
Cc1nn(-c2ccccc2)c(N2CCCCC2)c1C=C(c1nc2ccccc2s1)c1nc2ccccc2s1: 15.4%
O=C(CCCOc1ccc(Cl)cc1Cl)Nc1ccc2c(c1)COC2=O: 68.6%
N#Cc1ccc(C(=O)OC2c3ccccc3-c3ccccc32)[nH]1: 3.68%
COc1cc(OC)cc(-n2c3c(c4nc(OC)ccc42)C(C)CCC3)c1 (stereo not shown): 69.1%
CCCc1nnsc1C(=O)NC1CC(=O)N(C2CC2)C1 (stereo not shown): 71.6%

Study 2 — effect on: cell-free assay; technique: competition with immobilised ligand; concentration: 1 µM; quantity: remaining binding
SMILES: CNCc1ccccc1-c1csc([C@H](C)Nc2nc(C)nc3cc(OC)c(OC)cc23)c1
Tyrosine-protein kinase JAK1, JH1 (JAK1, Homo sapiens, UniProt P23458): 89%
PIM2 (Homo sapiens, UniProt Q9P1W9): 100%
MAP3K4 (Homo sapiens, UniProt Q9Y6R4): 100%
RET (Homo sapiens, UniProt P07949, V804M): 100%
PIKFYVE (Homo sapiens, UniProt Q9Y2I7): 100%
NIM1K (Homo sapiens, UniProt Q8IY84): 90%
SLK (Homo sapiens, UniProt Q9H2G2): 100%
STK39 (Homo sapiens, UniProt Q9UEW8): 100%
KIT (Homo sapiens, UniProt P10721, V559D): 100%
BMPR2 (Homo sapiens, UniProt Q13873): 100%
SGK2 (Homo sapiens, UniProt Q9HBY8): 100%
FLT3 (Homo sapiens, UniProt P36888): 100%
Myosin-IIIa (MYO3A, Homo sapiens, UniProt Q8NEV4): 100%
ABL2 (Homo sapiens, UniProt P42684): 100%

Study 3 — effect on: enzyme activity; mode: inhibitor; concentration: 77 µM; quantity: remaining activity
Target: DNA polymerase theta, ATPase domain (POLQ, Homo sapiens, UniProt O75417)
Sequence of UniProt O75417 (whole entry, unmodified, looked up): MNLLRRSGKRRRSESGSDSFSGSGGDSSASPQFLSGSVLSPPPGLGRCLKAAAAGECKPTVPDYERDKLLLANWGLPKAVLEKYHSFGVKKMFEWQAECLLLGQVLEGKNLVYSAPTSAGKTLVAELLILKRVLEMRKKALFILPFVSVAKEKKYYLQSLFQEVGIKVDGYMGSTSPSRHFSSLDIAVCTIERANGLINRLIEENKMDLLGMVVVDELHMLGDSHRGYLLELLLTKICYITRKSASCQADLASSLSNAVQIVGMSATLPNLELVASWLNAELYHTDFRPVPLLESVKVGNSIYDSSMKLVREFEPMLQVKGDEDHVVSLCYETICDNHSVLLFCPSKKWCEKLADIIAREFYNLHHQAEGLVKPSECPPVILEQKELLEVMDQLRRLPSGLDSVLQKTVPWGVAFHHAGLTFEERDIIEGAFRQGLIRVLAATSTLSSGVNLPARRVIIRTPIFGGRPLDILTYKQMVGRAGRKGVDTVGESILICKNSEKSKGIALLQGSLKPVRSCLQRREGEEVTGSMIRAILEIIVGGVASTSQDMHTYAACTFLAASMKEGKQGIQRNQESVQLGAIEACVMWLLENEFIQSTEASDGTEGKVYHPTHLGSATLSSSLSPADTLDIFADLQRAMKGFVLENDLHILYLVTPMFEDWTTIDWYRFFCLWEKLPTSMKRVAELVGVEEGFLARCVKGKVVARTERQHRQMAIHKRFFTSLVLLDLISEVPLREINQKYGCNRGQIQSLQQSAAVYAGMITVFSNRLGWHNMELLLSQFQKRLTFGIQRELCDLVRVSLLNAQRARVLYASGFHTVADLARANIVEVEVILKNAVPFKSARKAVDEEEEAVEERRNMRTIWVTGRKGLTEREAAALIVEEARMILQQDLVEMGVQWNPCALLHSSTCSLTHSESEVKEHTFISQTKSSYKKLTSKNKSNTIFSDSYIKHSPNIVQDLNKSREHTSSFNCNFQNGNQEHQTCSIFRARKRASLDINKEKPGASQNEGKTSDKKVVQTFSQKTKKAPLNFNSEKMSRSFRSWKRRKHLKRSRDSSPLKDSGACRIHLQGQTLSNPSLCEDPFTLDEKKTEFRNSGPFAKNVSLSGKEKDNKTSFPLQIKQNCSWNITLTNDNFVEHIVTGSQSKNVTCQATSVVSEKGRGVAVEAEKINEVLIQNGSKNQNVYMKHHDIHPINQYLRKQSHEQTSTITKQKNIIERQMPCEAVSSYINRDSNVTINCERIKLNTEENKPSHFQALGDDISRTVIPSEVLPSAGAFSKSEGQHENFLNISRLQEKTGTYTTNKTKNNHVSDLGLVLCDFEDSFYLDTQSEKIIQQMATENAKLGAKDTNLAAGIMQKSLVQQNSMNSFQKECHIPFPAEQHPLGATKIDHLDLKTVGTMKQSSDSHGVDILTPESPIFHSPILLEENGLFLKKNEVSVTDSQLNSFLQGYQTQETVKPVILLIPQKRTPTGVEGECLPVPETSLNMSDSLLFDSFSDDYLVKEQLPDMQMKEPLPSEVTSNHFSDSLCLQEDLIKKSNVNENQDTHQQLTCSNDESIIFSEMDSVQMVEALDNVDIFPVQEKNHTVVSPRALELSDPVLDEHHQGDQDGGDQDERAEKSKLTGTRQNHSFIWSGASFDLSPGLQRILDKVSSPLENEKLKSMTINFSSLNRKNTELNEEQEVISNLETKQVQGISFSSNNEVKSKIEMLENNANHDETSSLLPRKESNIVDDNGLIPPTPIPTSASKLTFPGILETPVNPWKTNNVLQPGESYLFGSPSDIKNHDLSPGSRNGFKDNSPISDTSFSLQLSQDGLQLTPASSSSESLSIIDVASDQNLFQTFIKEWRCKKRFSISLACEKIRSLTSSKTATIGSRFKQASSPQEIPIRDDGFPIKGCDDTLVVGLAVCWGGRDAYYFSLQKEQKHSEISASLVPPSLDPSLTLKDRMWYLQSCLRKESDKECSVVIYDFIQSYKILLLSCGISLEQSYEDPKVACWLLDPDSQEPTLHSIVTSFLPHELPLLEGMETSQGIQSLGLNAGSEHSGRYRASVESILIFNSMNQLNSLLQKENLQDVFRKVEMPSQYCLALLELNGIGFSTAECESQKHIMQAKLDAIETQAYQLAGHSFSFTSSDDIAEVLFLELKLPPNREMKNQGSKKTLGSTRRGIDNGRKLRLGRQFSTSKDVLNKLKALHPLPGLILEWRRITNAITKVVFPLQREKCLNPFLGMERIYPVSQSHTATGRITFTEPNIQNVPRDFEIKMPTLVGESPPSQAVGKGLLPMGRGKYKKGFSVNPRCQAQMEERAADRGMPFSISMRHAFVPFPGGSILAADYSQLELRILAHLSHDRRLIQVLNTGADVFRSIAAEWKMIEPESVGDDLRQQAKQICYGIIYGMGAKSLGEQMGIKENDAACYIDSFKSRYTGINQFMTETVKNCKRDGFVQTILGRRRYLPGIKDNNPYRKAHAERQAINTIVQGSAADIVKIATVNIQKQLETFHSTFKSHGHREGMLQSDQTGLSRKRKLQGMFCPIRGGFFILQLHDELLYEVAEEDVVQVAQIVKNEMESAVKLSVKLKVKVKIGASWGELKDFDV
Cc1ccc(C(=O)N(CCCN)[C@@H](c2nc3cc(Cl)ccc3c(=O)n2Cc2ccccc2)C(C)C)cc1: 75.7%
CN[C@H](CC(C)C)C(=O)N[C@H]1C(=O)N[C@@H](CC(N)=O)C(=O)N[C@H]2C(=O)N[C@H]3C(=O)N[C@H](C(=O)N[C@H](C(=O)O)c4cc(O)cc(O)c4-c4cc3ccc4O)[C@H](O)c3ccc(c(Cl)c3)Oc3cc2cc(c3O[C@@H]2O[C@H](CO)[C@@H](O)[C@H](O)[C@H]2O[C@H]2C[C@](C)(N)[C@H](O)[C@H](C)O2)Oc2ccc(cc2Cl)[C@H]1O: 108%
CNCCC(Oc1ccc(C(F)(F)F)cc1)c1ccccc1 (stereo not shown): 94.7%

Study 4 — technique: von Frey, 0.4 g filament; host: mouse, CFA inflammatory pain; quantity: paw withdrawal frequency
SMILES: COc1cc(C(=O)OCCCN2CCCN(CCCOC(=O)c3cc(OC)c(OC)c(OC)c3)CC2)cc(OC)c1OC
intravenous, dose not given, 24 h post-dose, second injection, day 3: 90% and 100% and 80%
intravenous, dose not given, 24 h post-dose, third injection, day 5: 100% and 80% and 90%
intravenous, dose not given, 3 h post-dose, second injection, day 3: 80% and 90%
subcutaneous, 10 mg/kg, baseline before CFA: 0% and 10%

Study 5 — effect on: binding; mode: competitor; technique: NanoBRET; cells: HEK293; quantity: normalized BRET
SMILES: CCC(=O)N1CCN(c2nc(OC[C@@H]3CCCN3C)nc3c2CCN(c2cccc4cccc(Cl)c24)C3)C[C@@H]1CC#N
KRAS G12D: GTPase KRas (KRAS, Homo sapiens, UniProt P01116, G12D)
KRAS G12D; 1.69 nM: 98% and 103% and 98.8%
KRAS G12D; 3.7 µM: 95.5% and 102% and 90.3%
GTPase KRas (KRAS, Homo sapiens, UniProt P01116, Q61L); 412 nM: 81.3% and 88% and 87.3%

Some of these lines once more (study 5):
KRAS G12D; 1.69 nM: 98% and 103% and 98.8%
KRAS G12D; 3.7 µM: 95.5% and 102% and 90.3%
